Published values of several laboratories.
Each line is one published result; not all experiments were run side by side. Several values in a cell are separate wells, animals, samples, runs or records. Numbers after ± are the reported error.
DRD4: D(4) dopamine receptor (DRD4, Homo sapiens, UniProt P21917)
UniProt P21917, sequence (whole entry, looked up): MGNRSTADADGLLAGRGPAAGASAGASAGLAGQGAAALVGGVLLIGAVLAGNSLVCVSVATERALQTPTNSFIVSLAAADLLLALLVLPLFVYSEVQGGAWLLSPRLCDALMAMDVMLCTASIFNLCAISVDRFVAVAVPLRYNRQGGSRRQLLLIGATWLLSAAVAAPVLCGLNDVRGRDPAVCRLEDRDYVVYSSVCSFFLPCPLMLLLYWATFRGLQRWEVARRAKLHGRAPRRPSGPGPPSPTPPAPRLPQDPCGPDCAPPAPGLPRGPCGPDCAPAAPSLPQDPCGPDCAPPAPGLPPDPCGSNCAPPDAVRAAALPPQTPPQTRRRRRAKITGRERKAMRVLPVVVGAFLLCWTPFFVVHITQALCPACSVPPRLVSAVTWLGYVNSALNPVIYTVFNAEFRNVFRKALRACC
UniProt P54760, sequence (whole entry, looked up): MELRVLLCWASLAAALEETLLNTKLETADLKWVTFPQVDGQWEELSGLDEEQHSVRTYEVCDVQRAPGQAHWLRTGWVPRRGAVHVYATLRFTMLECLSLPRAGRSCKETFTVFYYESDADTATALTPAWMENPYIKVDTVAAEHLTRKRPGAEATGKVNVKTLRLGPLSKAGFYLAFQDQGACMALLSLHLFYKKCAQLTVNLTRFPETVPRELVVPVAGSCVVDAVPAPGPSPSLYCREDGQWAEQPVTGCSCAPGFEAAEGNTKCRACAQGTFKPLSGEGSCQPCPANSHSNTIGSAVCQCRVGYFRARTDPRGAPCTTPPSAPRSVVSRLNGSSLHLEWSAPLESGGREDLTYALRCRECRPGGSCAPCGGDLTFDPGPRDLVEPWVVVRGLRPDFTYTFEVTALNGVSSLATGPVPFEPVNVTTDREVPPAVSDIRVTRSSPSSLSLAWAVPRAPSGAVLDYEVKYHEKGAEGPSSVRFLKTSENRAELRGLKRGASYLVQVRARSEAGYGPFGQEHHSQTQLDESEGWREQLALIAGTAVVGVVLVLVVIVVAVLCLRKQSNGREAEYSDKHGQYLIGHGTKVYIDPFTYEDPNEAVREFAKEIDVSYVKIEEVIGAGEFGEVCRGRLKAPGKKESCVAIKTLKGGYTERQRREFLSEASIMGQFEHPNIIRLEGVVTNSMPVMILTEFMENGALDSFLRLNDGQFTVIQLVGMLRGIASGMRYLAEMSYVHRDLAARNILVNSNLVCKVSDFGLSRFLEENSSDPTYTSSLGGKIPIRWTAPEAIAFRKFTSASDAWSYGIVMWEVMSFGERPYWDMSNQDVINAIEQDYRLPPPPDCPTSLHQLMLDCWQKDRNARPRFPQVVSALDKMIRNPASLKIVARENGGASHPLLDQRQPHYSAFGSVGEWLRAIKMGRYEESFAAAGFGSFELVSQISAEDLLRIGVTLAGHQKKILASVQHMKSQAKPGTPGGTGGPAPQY
UniProt Q92851, sequence (whole entry, looked up): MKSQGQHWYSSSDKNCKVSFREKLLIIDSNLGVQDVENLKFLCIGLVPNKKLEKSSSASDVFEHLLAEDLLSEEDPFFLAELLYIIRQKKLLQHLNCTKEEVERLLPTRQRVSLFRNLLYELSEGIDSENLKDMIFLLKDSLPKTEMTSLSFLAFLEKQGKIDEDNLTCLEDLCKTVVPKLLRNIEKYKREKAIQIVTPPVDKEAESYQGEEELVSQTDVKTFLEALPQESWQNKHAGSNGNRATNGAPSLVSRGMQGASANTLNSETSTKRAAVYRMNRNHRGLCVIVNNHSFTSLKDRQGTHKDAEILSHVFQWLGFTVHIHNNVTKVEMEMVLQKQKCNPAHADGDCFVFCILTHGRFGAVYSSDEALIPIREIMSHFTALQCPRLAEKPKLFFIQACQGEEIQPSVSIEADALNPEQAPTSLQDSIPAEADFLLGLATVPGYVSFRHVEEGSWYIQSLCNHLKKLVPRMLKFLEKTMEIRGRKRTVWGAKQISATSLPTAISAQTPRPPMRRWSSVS

COCCNCCOc1cc(C)cc(C(C)C)c1 gave a larval motion of 17.5 ± 1.7 pixels/frame (zebrafish larvae, 7 dpf; 10 µM, minute 2).
With CC(=O)N[C@@H](Cc1ccc(C)cc1)C(=O)N[C@@H](CCCC(=O)O)C(=O)N[C@H](C(=O)N[C@@H](CC(=O)O)C(=O)COC(=O)c1c(C)cccc1C)C(C)(C)C the kinact/KI was 218000 M⁻¹ s⁻¹ (Caspase-10 (CASP10, Homo sapiens, UniProt Q92851); enzyme activity, inhibitor).
CN(C)CCOCCOc1ccc(Cl)c(Cl)c1 has a larval motion of 1.2 ± 0.6 pixels/frame (locomotor activity in dark; zebrafish larvae, 7 dpf; 10 µM, minute 5, dark phase).
COc1ccc(CN2CCC(F)(F)C(COc3ccc(F)c(F)c3)C2)cc1F (centres unmarked) gave a Ki of 5.5 nM (DRD4; ligand displacement, radioligand; cell membranes).
Under “log2 fold change”, Cc1ncsc1-c1ccc(C(C)NC(=O)C2CC(O)CN2C(=O)C(NC(=O)CCCCCCCCCCN2CCCC(Nc3ncc(Cl)c(Nc4ccccc4S(=O)(=O)C(C)C)n3)C2)C(C)(C)C)cc1 (centres unmarked) is recorded as -1.1 (22Rv1; RNA-seq, measured: SMG9 mRNA; concentration not given; relative to: DMSO).
The larval motion of Cc1cc(C(C)(C)C)ccc1OCCOCCN(C)C is reported as 15 ± 1.4 pixels/frame (zebrafish larvae, 7 dpf; 10 µM, minute 6).
Under “cells with structural aberrations”, O=C1NC2(CC2)COc2ncc(F)cc2[C@H]2COCCN2c2ccn3ncc1c3n2 is recorded as 1% (CHL cells; chromosomal aberration test; 20 µg/mL, 24 h, without S9 mix).
C[C@@H]1CN(c2ccnc(C(=O)N[C@H]3C[C@@H]3c3ccccc3)c2)CC[C@@H]1O has a creatine concentration of 1200 µg/mL and 1060 µg/mL and 849 µg/mL (female heterozygous SLC6A8 P549L mice, cortex; oral, 30 mg/kg once daily).
O=C(CCN1CCN(C/C=C/c2ccccc2)CC1)Nc1ccccc1F has a larval motion of 2.3 ± 0.9 pixels/frame (locomotor activity in dark; zebrafish larvae, 7 dpf; 10 µM, minute 7, dark phase).
With CC(=O)[O-].O.O.O.O.[Ni+2].[O-]c1ccc(Br)cc1C=NCCN1CCOCC1 the inhibition was 32.8% (hydroxyl radical scavenging; 120 µM).
COc1ccccc1C1CCN(CCC(=O)Nc2ccc(C)c(C)c2)CC1 has a larval motion of 1.2 ± 0.5 pixels/frame (zebrafish larvae, 7 dpf; 10 µM, minute 4).
For COC1CN([C@H]2CC[C@H]([C@@]3(C)Oc4c(Cl)cc(C(=O)NCc5c(SC)cc(C)[nH]c5=O)c(C)c4O3)CC2)C1, “log2 fold change” read 0.795 (RNA-seq, measured: BMP2 mouse homolog; mouse, HT-1376 xenograft, whole blood; dose not given; relative to: vehicle).
With Cc1cn(CC(=O)N(CCNC(=O)CN(CCNC(=O)CN(CCNC(=O)CN(CCNC(=O)CN(CCNC(=O)CN(CCNC(=O)CN(CCNC(=O)CN(CCN)C(=O)Cn2cnc3c(=O)[nH]c(N)nc32)C(=O)Cn2cnc3c(N)ncnc32)C(=O)Cn2cc(C)c(=O)[nH]c2=O)C(=O)Cn2cnc3c(=O)[nH]c(N)nc32)C(=O)Cn2cc(C)c(=O)[nH]c2=O)C(=O)Cn2cnc3c(=O)[nH]c(N)nc32)C(=O)Cn2cnc3c(N)ncnc32)CC(=O)NCCN(CC(=O)NCCOCCOCC(N)=O)C(=O)Cn2cnc3c(N)ncnc32)c(=O)[nH]c1=O the Tm was 25.4 °C (UV melting; DNA duplex with T·G mismatch; pH 7.2, 1 µM each strand).
COc1cnc2cccc(N3CCc4c(cc(Cn5ccnc5)cc4-c4cn(C)nc4C(F)(F)F)C3=O)c2c1 gave a tumour volume of 174 mm3 and 156 mm3 and 201 mm3 and 233 mm3 and 136 mm3 (BALB/c nude mice, MV4-11 xenograft; intraperitoneal, 75 mg/kg, day 14).
CC[C@H](C)[C@H](NC(=O)[C@H](Cc1ccc(O)cc1)NC(=O)[C@H](CCC(=O)O)NC(=O)CNC(=O)[C@H](CCC(=O)O)NC(=O)[C@H](CCCCN)NC(=O)[C@H](CCCCN)NC(=O)[C@H](CC(=O)O)NC(=O)[C@H](Cc1c[nH]cn1)NC(=O)[C@H](Cc1c[nH]cn1)NC(=O)[C@H](Cc1c[nH]cn1)NC(=O)[C@H](Cc1c[nH]cn1)NC(=O)[C@H](Cc1c[nH]cn1)NC(=O)[C@H](Cc1c[nH]cn1)NC(=O)[C@H](Cc1c[nH]cn1)NC(=O)[C@H](Cc1c[nH]cn1)NC(=O)[C@H](Cc1c[nH]cn1)NC(=O)[C@@H](N)Cc1c[nH]cn1)C(=O)N[C@@H](CCCCN)C(=O)N[C@@H](CC(C)C)C(=O)N[C@@H](CCCCN)C(=O)N[C@H](C(=O)N[C@H](C(=O)NCC(=O)N[C@@H](CCC(N)=O)C(=O)N[C@@H](CC(=O)O)C(=O)N[C@@H](CO)C(=O)N[C@@H](CO)C(=O)N[C@@H](CCC(=O)O)C(=O)N[C@H](C(=O)N[C@@H](Cc1c[nH]cn1)C(=O)N[C@@H](Cc1ccccc1)C(=O)N[C@@H](CCCCN)C(=O)N[C@H](C(=O)N[C@@H](CCCCN)C(=O)N[C@@H](CCSC)C(=O)N[C@H](C(=O)N[C@H](C(=O)N[C@@H](Cc1c[nH]cn1)C(=O)N[C@@H](CC(C)C)C(=O)N[C@@H](CCCCN)C(=O)N[C@@H](CCCCN)C(=O)N[C@@H](CC(C)C)C(=O)N[C@@H](CCCCN)C(=O)N[C@@H](CCC(=O)O)C(=O)N[C@@H](CO)C(=O)N[C@@H](Cc1ccc(O)cc1)C(=O)N[C@@H](CS)C(=O)N[C@@H](CCC(N)=O)C(=O)N[C@@H](CCCNC(=N)N)C(=O)N[C@@H](CCC(N)=O)C(=O)O)[C@@H](C)O)[C@@H](C)O)C(C)C)[C@@H](C)CC)[C@@H](C)CC)C(C)C — result for “rhabdomere count mean difference”: -1.68 (pseudopupil; Drosophila α-synuclein A53T transgenic; 120 µM; relative to: untreated).
C=CC(=O)N1CC2C(=O)N(CCN(C)C)c3c(c4cc(Cl)c(-c5c(O)cccc5F)nc4n(-c4c(C)ccnc4C(C)C)c3=O)N2CC1C (centres unmarked): p-ERK/ERK ratio “decreased” (MSD; BALB/c nude mouse, H358 xenograft, tumour; 100 mg/kg, 6 h).
With COc1cc(O)ccc1CCC(c1ccc(O)cc1)c1cc2c(c(C)c1O)OC(c1ccc(O)cc1)CC2 (mixture of isomers) the 14-HDHA level was 549 ± 118 pg/mL (human blood; 3 µM, added: A23187).
With Nc1ncc(-c2cc(-c3cnn(CC(F)(F)F)c3)ncc2F)nc1C(=O)NC1CNCC(F)C1 (centres unmarked) the remaining binding was 100% (GSK3B; KINOMEscan; 1 µM; relative to: DMSO control).
Cc1cccc(NC(=O)CCN2CCN(C/C=C/c3ccccc3)CC2)c1 has a larval motion of 5.8 ± 1 pixels/frame (zebrafish larvae, 7 dpf; 10 µM, minute 4).
CC1(C)CC[C@@]2(CO)C(=C3C=C[C@@H]4[C@@]5(C)CC[C@H](O)[C@@](C)(CO)[C@@H]5CC[C@@]4(C)[C@]3(C)C[C@@H]2O)C1 has an AST/ALT ratio of 1.87 and 2.06 and 2.02 and 1.63 and 1.47 (Mus musculus, chronic-plus-binge ethanol, plasma; dose not given).
With CN1CCC[C@]1(C)/C=C/S(=O)(=O)NC(=O)Nc1c2c(cc3c1CCC3)CCC2 the IL-1β inhibition was 99.3% (human, whole blood ex vivo; 50 mg single dose, 6 h, single ascending dose, added: LPS and ATP).
CNS(=O)(=O)Nc1nccc(Cc2c(C)c3ccc(Oc4ncccc4F)cc3oc2=O)c1F gave an IC50 of greater than 1000 nM (LAPC4; cell viability; 7 days).
COc1ccc(CN2CC(COc3ccc(F)c(F)c3)CC(F)(F)C2)cc1F (centres unmarked) has a Ki of 210 nM (DRD4; ligand displacement, radioligand; cell membranes).
The larval motion of O=C(CCN1CCN(C/C=C/c2ccccc2)CC1)Nc1ccc2c(c1)CCC2 is reported as 16.2 ± 2.1 pixels/frame (zebrafish larvae, 7 dpf; 10 µM, minute 4).
The binding of C=CC(=O)Nc1cccc(Cn2ncc3cnc(Nc4cnn(CCOC)c4)nc32)c1 is reported as 100% (human AMPK-alpha1; KINOMEscan; 100 nM; relative to: control).
For COc1ccc2c(c1)c(CC(=O)[O-])c(C)n2C(=O)c1ccc(Cl)cc1.COc1ccc2c(c1)c(CC(=O)[O-])c(C)n2C(=O)c1ccc(Cl)cc1.[Co+2].c1c[nH]cn1.c1c[nH]cn1, “DPPH radical scavenging” read 21.7 ± 0.67% (DPPH; methanol; concentration not given, 60 min).
O=C(CCN1CCN(C/C=C/c2ccccc2)CC1)Nc1ccccc1 gave a larval motion of 2 ± 0.5 pixels/frame (locomotor activity in dark; zebrafish larvae, 7 dpf; 10 µM, minute 1, dark phase).
Under “inclusion body count”, CCCCSC(=S)N1CCN(C(=O)/C=C/c2coc3ccccc3c2=O)CC1 is recorded as 69 and 40 and 54 and 56 (N condensate formation, confocal microscopy, measured: N-YFP; Nicotiana benthamiana leaves; 100 µg/mL, 72 h post-injection, injected 36 h post-infiltration).
The intraocular pressure of NC[C@@H](C(=O)Nc1ccc(-c2cn[nH]c2)cc1)c1ccccc1 is reported as 20.3 mmHg (normotensive Macaca cyclopis, right eye; 0.1 %, pre-dose).
With CN(CCC#N)c1nc(NCC[C@H]2CCCN2C)nc2sc(-c3ccccc3)cc12 the maximal tension was 10.9 mN (force-pCa relationship; C57BL/6N mice, skinned left ventricular papillary fibres; 30 µM, 30 min, DMSO 13.36).
With CCN(CC)CC(=O)Nc1cccc(-n2cc(-c3ccc4ccc(-c5cn(-c6cccc(NC(=O)CN(CC)CC)c6)nn5)cc4c3)nn2)c1 the IC50 was greater than 10000 nM (EPHB4 (Homo sapiens, UniProt P54760); enzyme activity, inhibitor).
COc1ccc(NC(=O)c2ccc3[nH]c(-c4ccc(N(C)C)cc4)nc3c2)cn1 gave a tumour volume of 311 mm3 and 112 mm3 and 226 mm3 and 562 mm3 and 272 mm3 (CT26, BALB/c mice, subcutaneous syngeneic graft; dose not given, day 9).
Under “mean revertant colonies”, O=C1C2CC3CC1CC(C(=O)N1CCN(c4ccc([N+](=O)[O-])c5ncccc45)CC1)(C3)C2 is recorded as 6 colonies/well (Salmonella typhimurium; Ames test; TA98; 0.02 µg/well, without S9).
CN(C)C(=O)c1ccnc(N2Cc3cn(Cc4ccc(F)cc4F)nc3C2)n1 has a paired-pulse ratio of 1.24 and 1.32 and 1.23 and 1.26 and 1.16 and 1.75 and 1.14 and 1.22 (mouse, hippocampal slice, Schaffer collaterals; dose not given, interstimulus interval 300; relative to: second over first response).
Under “log2 fold change”, CN1CCCNC(=O)c2cccc(c2)C(=O)NCCCN(C)CCCNc2cccc3c2C(=O)c2cccc(c2C3=O)NCCC1 is recorded as 0.299 (SAS; RNA-Seq, measured: HNRNPA2B1 mRNA; 1 µM, 6 h; relative to: untreated cells).

A few entries again:
O=C(CCN1CCN(C/C=C/c2ccccc2)CC1)Nc1ccccc1F has a larval motion of 2.3 ± 0.9 pixels/frame (locomotor activity in dark; zebrafish larvae, 7 dpf; 10 µM, minute 7, dark phase).
CC[C@H](C)[C@H](NC(=O)[C@H](Cc1ccc(O)cc1)NC(=O)[C@H](CCC(=O)O)NC(=O)CNC(=O)[C@H](CCC(=O)O)NC(=O)[C@H](CCCCN)NC(=O)[C@H](CCCCN)NC(=O)[C@H](CC(=O)O)NC(=O)[C@H](Cc1c[nH]cn1)NC(=O)[C@H](Cc1c[nH]cn1)NC(=O)[C@H](Cc1c[nH]cn1)NC(=O)[C@H](Cc1c[nH]cn1)NC(=O)[C@H](Cc1c[nH]cn1)NC(=O)[C@H](Cc1c[nH]cn1)NC(=O)[C@H](Cc1c[nH]cn1)NC(=O)[C@H](Cc1c[nH]cn1)NC(=O)[C@H](Cc1c[nH]cn1)NC(=O)[C@@H](N)Cc1c[nH]cn1)C(=O)N[C@@H](CCCCN)C(=O)N[C@@H](CC(C)C)C(=O)N[C@@H](CCCCN)C(=O)N[C@H](C(=O)N[C@H](C(=O)NCC(=O)N[C@@H](CCC(N)=O)C(=O)N[C@@H](CC(=O)O)C(=O)N[C@@H](CO)C(=O)N[C@@H](CO)C(=O)N[C@@H](CCC(=O)O)C(=O)N[C@H](C(=O)N[C@@H](Cc1c[nH]cn1)C(=O)N[C@@H](Cc1ccccc1)C(=O)N[C@@H](CCCCN)C(=O)N[C@H](C(=O)N[C@@H](CCCCN)C(=O)N[C@@H](CCSC)C(=O)N[C@H](C(=O)N[C@H](C(=O)N[C@@H](Cc1c[nH]cn1)C(=O)N[C@@H](CC(C)C)C(=O)N[C@@H](CCCCN)C(=O)N[C@@H](CCCCN)C(=O)N[C@@H](CC(C)C)C(=O)N[C@@H](CCCCN)C(=O)N[C@@H](CCC(=O)O)C(=O)N[C@@H](CO)C(=O)N[C@@H](Cc1ccc(O)cc1)C(=O)N[C@@H](CS)C(=O)N[C@@H](CCC(N)=O)C(=O)N[C@@H](CCCNC(=N)N)C(=O)N[C@@H](CCC(N)=O)C(=O)O)[C@@H](C)O)[C@@H](C)O)C(C)C)[C@@H](C)CC)[C@@H](C)CC)C(C)C — result for “rhabdomere count mean difference”: -1.68 (pseudopupil; Drosophila α-synuclein A53T transgenic; 120 µM; relative to: untreated).
